Published values collected from several papers.
Compare with care: the assays were run in different laboratories. ± marks the error that the study gave.

O=C(NCCCOCCOCCOCCCNC(=O)[C@H]1CCCC[C@H]1C(=O)O)[C@H]1CCCC[C@H]1C(=O)O  logP (shake-flask; n-octanol/water; 24 °C): 0.02
Cc1cc(NC(=O)c2ccc(Br)cc2)n[nH]1  logP (octanol/buffer, 40 mM buffer; pH 11): 2.7
O=C(C=Cc1ccc(O)cc1)Nc1ccc(-c2ccc(NC(=O)C=Cc3ccc(O)cc3)cc2)cc1  logP (shake flask UV/Vis; n-octanol/water): 5.42
CC(CCC(=O)[O][Pt]([NH2])([NH2])([OH])([Cl])[Cl])C1CCC2C3CCC4CC(O)CCC4(C)C3CCC12C (stereo not drawn)  logP (shake flask; octanol/phosphate buffer; pH 7.4): -0.88
Nc1cc2cccnc2c2ncccc12.[Cl-].[Cl-].[Ru+2].c1cnc2c(c1)ccc1cccnc12.c1cnc2c(c1)ccc1cccnc12  logP (shake flask; n-octanol/water): -1.12
O=c1cc(/C=C/c2ccc(N(c3ccccc3)c3ccccc3)cc2)oc(/C=C/c2ccc(N(c3ccccc3)c3ccccc3)cc2)c1  logP (n-octanol/10 mM PBS; pH 7.4): 2.08
CC(=O)N1N=C(Nc2ccc(-c3ccc(NC4=NN(C(C)=O)C(c5ccccc5)C4)cc3)cc2)CC1c1ccccc1 (stereo not drawn)  logP (shake flask UV/Vis; n-octanol/water): 6.42
CC(CCC(=O)OCc1cccc(CN(C(=O)OCc2ccc(B3OC(C)(C)C(C)(C)O3)cc2)[c-]2cccc2)c1)C1CCC2C3C(O)CC4CC(O)CCC4(C)C3CC(O)C12C.[Fe+2].c1cc[cH-]c1 (stereo not drawn)  logP (RP-TLC; pH 7.4): > 6.25
CC(=O)N1N=C(Nc2ccc(-c3ccc(NC4=NN(C(C)=O)C(c5ccc(O)cc5)C4)cc3)cc2)CC1c1ccc(O)cc1 (stereo not drawn)  logP (shake flask UV/Vis; n-octanol/water): 5.43
C1=[N+]2CCC[N+]3=Cc4ccc5[n]4[Au-]23[n]2c1ccc2-c1nc2ccccc2nc1-5.F[P-](F)(F)(F)(F)F  logP (octanol/water): 0.776
O=c1cc(-c2ccccc2)oc2cc(O)cc([O][Ga+][O]c3cc(O)cc4oc(-c5ccccc5)cc(=O)c34)c12  logP (shake-flask octanol/PBS; pH 7.4, 37 °C): 1.78
O=c1cc(/C=C/c2ccc(N3CCOCC3)cc2)oc(/C=C/c2ccc(N3CCOCC3)cc2)c1  logP (n-octanol/10 mM PBS; pH 7.4): 0.73
CCCCCCC(=O)[O][Pt]([NH2])([NH2])([Cl])([Cl])[O]C(=O)CCC(C)C1CCC2C3CCC4CC(O)CCC4(C)C3CCC12C (stereo not drawn)  logP (shake flask; octanol/phosphate buffer; pH 7.4): -0.29
COc1ccc(Nc2nc(Nc3ccc(OCCOCC[18F])cc3)ncc2Br)cc1  logP (n-octanol/PBS; pH 7.4): 2.97 ± 0.1
COc1ccc(C2CC(Nc3ccc(-c4ccc(NC5=NOC(c6ccc(OC)cc6)C5)cc4)cc3)=NO2)cc1 (stereo not drawn)  logP (shake flask UV/Vis; n-octanol/water): 6.16
ClC1C[N+]2=Cc3ccc4[n]3[Au-]23[n]2c(ccc2-c2nc5ccccc5nc2-4)C=[N+]3C1.F[P-](F)(F)(F)(F)F  logP (octanol/water): 1.06
COc1ccccc1C1CC(Nc2ccc(-c3ccc(NC4=NOC(c5ccccc5OC)C4)cc3)cc2)=NO1 (stereo not drawn)  logP (shake flask UV/Vis; n-octanol/water): 6.01
O=c1cc(/C=C/c2ccc(N3CCCC3)cc2)oc(/C=C/c2ccc(N3CCCC3)cc2)c1  logP (n-octanol/10 mM PBS; pH 7.4): 1.34
O=C(C=Cc1ccccc1)Nc1ccc(-c2ccc(NC(=O)C=Cc3ccccc3)cc2)cc1  logP (shake flask UV/Vis; n-octanol/water): 6.51
Cc1nc(C)c(-c2ccnc(Nc3cccc(C#N)c3)n2)s1  logP (octanol/buffer; 67 µM, pH 11): 3.89
COc1ccccc1C=CC(=O)Nc1ccc(-c2ccc(NC(=O)C=Cc3ccccc3OC)cc2)cc1  logP (shake flask UV/Vis; n-octanol/water): 6.1
O=c1cc(-c2ccc(O)cc2)oc2cc(O)cc([O][Ga+][O]c3cc(O)cc4oc(-c5ccc(O)cc5)cc(=O)c34)c12  logP (shake-flask octanol/PBS; pH 7.4, 37 °C): 1.56
CN(C)c1ccc(C=CC(=O)Nc2ccc(-c3ccc(NC(=O)C=Cc4ccc(N(C)C)cc4)cc3)cc2)cc1  logP (shake flask UV/Vis; n-octanol/water): 6.71
NS(=O)(=O)c1ccc(N/N=C2\C(=O)Nc3ccc(C(=O)NCCc4c[nH]cn4)cc32)cc1  logP (octanol/buffer; pH 11): 1.01

Excerpt of the above:
COc1ccccc1C=CC(=O)Nc1ccc(-c2ccc(NC(=O)C=Cc3ccccc3OC)cc2)cc1  logP (shake flask UV/Vis; n-octanol/water): 6.1
O=c1cc(-c2ccc(O)cc2)oc2cc(O)cc([O][Ga+][O]c3cc(O)cc4oc(-c5ccc(O)cc5)cc(=O)c34)c12  logP (shake-flask octanol/PBS; pH 7.4, 37 °C): 1.56
CN(C)c1ccc(C=CC(=O)Nc2ccc(-c3ccc(NC(=O)C=Cc4ccc(N(C)C)cc4)cc3)cc2)cc1  logP (shake flask UV/Vis; n-octanol/water): 6.71
